Published values of several laboratories.
Parts stem from different laboratories: compare values within a part only. Substitutions count along the parent as printed.

Set 1
Target: OGT, full length, His-tagged (human)
Technique: phage display, sequencing
Matrix: in vitro
Concentration: 1 µg OGT
Notes: single substitutions, 15-mer displayed peptide, unchanged parent 5.27
Relative to: input library
Reading: higher = stronger binding
Starting sequence: peptide; GDFPVMFMPKYSIIY
`G1F` gave a fold enrichment of 7.3 fold.
`M6A` has a fold enrichment of 1.06 fold.
`Y11Q` has a fold enrichment of 0.998 fold.
The fold enrichment of `Y11V` is reported as 4.21 fold.
For `K10E`, the fold enrichment was 1.84 fold.
`I13M` has a fold enrichment of 1.45 fold.
`F3Y` gave a fold enrichment of 4.95 fold.
`G1A` has a fold enrichment of 5.45 fold.

Set 2
Target: Max-binding protein MNT, bHLH-zipper, MAX partner unstated (MNT, Homo sapiens, UniProt Q99583, residues 220-300)
Technique: protein-binding microarray
Form: double-stranded DNA, one strand shown
Matrix: in vitro
Concentration: not given
Notes: k-mer, scored over probes, only values ≥0.25
Reading: higher = stronger binding
Residues (chain): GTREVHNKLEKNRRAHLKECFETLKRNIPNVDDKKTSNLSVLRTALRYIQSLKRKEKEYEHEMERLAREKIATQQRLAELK
For `CTGCCCAC`, the E-score was 0.256.
For `CCGTGCGC`, the E-score was 0.315.
`ACATGGGG` has an E-score of 0.423.
With `CACATGCG` the E-score was 0.463.
`GGCATGCC` gave an E-score of 0.381.
For `ACCCACAT`, the E-score was 0.315.
`CCACGTGG` has an E-score of 0.499.
With `CACGTAGC` the E-score was 0.272.

Other studies, line by line
P1: viral docking peptide; CKVKRKLFGSENI; partner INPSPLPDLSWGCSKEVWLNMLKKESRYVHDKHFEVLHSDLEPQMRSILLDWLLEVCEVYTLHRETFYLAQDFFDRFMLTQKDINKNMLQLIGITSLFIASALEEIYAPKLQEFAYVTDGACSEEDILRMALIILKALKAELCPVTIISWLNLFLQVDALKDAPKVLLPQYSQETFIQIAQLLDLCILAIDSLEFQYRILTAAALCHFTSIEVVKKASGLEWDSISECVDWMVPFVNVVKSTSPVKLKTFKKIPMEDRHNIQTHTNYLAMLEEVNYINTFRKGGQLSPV
The fold induction of `PhoQ, residues 284 288 289 292 302 303 SIHLQL` is reported as 7.46 (PhoP, residues 12 14 15 18 19 STWGI (Escherichia coli, UniProt P23836); Sort-seq, item: YFP reporter; E. coli; PhoQ-PhoP variant library, together with: 10 µM Mg2+; relative to: high Mg2+ state, higher = stronger signaling).
Under cross-linked residues, `MYH9 (Homo sapiens, UniProt P35579)` is recorded as “K1815 to K1925” (MYH10 (Homo sapiens, UniProt P35580); cross-linking MS; cell fractions; together with: DSSO).
Under “normalised enrichment score”, `P1 L7A` is recorded as 0.489 (CCNE2, cyclin fold, Cln2 fusion (human); yeast growth competition, sequencing; yeast; strong parent motif; relative to: not given, higher = stronger binding).
